Experimental data from different studies.
Every numbered part comes from another study and shows a few of its results, in no order. “And” joins repeats or separate records; there may be more than shown.
Chain of UniProt Q9P1W9 (whole entry, looked up): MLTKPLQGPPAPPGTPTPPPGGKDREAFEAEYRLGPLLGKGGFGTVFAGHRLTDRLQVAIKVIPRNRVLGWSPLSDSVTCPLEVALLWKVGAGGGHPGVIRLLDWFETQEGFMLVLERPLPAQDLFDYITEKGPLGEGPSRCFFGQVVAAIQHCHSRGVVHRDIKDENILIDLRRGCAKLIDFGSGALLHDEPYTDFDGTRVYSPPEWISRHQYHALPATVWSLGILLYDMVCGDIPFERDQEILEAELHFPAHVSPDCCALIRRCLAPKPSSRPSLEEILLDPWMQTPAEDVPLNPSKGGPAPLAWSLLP
Chain of UniProt Q86YV6 (whole entry, looked up): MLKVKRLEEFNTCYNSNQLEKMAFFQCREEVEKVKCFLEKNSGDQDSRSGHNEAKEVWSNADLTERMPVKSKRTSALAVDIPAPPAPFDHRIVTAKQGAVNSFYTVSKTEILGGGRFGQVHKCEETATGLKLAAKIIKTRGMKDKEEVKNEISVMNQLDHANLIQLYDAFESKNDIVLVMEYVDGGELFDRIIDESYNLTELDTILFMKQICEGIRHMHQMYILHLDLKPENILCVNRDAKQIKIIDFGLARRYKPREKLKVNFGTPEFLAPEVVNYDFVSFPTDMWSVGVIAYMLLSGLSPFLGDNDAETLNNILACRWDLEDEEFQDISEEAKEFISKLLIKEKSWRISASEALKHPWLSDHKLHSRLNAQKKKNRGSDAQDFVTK
Chain of UniProt P57059 (whole entry, looked up): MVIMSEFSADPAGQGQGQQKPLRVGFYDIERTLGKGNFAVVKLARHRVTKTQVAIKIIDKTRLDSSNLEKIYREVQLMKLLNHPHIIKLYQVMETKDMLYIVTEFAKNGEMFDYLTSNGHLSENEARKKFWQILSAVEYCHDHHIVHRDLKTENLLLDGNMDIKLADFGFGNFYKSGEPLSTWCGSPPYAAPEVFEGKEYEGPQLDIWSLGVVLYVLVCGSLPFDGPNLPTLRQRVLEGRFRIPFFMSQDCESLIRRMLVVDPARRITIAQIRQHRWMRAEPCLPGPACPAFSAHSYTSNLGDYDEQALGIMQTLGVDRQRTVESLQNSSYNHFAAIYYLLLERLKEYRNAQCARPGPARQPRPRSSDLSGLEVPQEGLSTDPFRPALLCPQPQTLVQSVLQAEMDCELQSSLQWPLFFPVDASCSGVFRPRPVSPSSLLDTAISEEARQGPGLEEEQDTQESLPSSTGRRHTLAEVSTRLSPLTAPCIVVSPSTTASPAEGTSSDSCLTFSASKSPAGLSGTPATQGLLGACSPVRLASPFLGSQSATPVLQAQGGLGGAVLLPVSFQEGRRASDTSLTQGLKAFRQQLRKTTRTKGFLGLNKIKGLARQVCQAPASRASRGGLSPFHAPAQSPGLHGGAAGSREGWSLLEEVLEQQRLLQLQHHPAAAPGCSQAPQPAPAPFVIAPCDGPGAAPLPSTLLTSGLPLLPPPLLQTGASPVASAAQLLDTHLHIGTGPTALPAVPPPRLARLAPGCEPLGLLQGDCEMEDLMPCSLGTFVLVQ
Chain of UniProt O95835 (whole entry, looked up): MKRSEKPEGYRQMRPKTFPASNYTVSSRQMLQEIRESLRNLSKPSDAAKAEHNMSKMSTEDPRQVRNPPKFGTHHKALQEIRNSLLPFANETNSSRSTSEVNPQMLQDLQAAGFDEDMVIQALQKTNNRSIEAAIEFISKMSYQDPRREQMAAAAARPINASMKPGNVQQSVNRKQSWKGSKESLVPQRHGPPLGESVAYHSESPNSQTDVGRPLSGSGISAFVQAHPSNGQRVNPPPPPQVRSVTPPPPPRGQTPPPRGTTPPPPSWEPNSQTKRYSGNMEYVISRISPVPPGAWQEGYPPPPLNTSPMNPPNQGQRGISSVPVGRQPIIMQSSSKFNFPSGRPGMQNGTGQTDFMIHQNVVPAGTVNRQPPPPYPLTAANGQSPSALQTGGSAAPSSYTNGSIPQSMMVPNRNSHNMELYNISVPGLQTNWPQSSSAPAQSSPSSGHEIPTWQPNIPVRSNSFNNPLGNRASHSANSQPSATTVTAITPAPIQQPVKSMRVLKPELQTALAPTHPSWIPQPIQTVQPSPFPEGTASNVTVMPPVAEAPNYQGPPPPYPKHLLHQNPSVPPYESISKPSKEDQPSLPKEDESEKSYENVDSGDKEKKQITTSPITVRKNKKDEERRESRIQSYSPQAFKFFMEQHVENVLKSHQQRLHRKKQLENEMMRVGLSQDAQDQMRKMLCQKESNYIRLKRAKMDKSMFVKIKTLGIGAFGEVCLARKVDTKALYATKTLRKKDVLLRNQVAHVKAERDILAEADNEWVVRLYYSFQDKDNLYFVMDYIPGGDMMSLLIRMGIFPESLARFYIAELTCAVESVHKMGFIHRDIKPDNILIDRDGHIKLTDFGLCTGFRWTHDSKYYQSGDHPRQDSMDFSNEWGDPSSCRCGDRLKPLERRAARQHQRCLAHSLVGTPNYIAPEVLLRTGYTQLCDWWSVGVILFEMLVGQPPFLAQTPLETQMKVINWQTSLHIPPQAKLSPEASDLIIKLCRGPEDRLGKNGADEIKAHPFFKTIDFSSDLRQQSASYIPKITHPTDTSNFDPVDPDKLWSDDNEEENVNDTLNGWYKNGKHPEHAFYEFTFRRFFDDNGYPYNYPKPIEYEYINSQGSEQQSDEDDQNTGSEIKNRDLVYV
Chain of UniProt Q02779 (whole entry, looked up): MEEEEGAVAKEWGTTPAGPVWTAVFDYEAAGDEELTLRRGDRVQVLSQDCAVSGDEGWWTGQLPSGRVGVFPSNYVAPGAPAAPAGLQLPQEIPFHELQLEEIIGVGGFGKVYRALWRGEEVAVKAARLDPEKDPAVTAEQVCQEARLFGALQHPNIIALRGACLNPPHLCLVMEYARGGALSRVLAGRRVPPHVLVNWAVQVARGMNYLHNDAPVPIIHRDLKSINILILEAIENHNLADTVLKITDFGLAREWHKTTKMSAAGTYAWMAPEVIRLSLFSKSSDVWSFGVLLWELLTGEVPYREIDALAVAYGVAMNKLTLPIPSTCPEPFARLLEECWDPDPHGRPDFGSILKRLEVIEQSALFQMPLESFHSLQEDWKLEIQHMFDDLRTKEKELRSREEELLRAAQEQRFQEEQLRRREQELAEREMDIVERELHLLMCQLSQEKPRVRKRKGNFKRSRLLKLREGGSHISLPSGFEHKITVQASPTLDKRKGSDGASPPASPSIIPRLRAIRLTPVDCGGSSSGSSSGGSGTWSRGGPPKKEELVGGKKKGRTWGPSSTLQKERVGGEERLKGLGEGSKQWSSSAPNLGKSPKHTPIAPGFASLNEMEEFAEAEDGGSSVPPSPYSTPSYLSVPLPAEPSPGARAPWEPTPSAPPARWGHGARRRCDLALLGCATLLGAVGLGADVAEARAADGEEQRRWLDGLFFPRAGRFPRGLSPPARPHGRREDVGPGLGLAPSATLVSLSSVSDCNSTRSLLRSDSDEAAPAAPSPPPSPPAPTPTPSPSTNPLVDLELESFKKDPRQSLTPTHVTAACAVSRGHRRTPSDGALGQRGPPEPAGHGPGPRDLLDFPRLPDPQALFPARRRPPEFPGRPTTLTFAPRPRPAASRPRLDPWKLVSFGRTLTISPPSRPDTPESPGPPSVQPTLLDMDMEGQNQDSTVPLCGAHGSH
Chain of UniProt O15530 (whole entry, looked up): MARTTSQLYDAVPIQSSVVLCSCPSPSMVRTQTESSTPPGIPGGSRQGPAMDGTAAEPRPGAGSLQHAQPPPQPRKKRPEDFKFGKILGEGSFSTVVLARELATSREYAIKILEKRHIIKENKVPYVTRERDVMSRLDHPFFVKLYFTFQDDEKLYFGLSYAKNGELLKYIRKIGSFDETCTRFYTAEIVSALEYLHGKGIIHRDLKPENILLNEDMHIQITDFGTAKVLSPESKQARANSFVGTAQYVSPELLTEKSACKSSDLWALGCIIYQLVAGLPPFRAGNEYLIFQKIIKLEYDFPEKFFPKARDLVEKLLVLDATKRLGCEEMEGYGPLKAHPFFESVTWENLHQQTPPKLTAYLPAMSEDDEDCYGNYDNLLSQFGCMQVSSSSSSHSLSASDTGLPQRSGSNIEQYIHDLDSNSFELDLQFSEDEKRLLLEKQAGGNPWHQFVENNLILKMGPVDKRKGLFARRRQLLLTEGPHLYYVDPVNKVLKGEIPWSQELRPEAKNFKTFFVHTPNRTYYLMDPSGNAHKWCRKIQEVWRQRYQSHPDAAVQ
Chain of UniProt Q13705 (whole entry, looked up): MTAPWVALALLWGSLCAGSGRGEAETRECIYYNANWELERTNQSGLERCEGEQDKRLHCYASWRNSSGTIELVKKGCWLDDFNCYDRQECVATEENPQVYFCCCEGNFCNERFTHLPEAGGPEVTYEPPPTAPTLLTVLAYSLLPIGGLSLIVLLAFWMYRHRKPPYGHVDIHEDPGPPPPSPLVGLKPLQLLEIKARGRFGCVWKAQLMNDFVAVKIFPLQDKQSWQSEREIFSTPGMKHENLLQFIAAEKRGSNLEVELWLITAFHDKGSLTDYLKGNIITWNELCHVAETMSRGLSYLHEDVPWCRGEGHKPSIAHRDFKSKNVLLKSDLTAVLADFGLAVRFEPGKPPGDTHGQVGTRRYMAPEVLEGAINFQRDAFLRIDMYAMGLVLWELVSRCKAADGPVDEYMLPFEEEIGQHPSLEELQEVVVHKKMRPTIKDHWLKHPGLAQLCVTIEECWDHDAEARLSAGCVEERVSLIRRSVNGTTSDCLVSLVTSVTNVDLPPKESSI
Chain of UniProt P50613 (whole entry, looked up): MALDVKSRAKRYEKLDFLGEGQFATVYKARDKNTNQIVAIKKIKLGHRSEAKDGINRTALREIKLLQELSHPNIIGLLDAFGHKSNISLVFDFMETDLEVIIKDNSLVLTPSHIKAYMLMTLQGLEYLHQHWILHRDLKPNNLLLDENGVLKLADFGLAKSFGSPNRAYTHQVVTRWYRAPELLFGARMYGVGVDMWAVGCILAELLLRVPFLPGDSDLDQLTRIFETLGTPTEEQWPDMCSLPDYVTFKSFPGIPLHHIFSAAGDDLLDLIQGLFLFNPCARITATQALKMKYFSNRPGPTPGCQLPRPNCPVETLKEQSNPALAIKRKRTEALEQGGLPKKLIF

Set 1
Structure (SMILES): Cc1ncsc1-c1ccc(C(CO)NC(=O)C2CC(O)CN2C(=O)C(C(C)C)n2cc(-c3ccc(COc4c(-c5c(C)c(F)cc6[nH]ncc56)c(C5CC5)cc5c(N6CC7CC6CN7)nc(OC6CCOCC6)nc45)cc3)nn2)cc1 (centres unmarked)
Target: GTPase KRas (KRAS, Homo sapiens, UniProt P01116, G12D)
Action: degrader
Technique: In-Cell ELISA
The DC50 was 57.4 nM and 24.9 nM and 38.8 nM (AsPC-1 (KRAS G12D); 24 h).
PK-59, VHL siRNA; 1440 min — DC50: 48.3 nM.
The DC50 was 38.1 nM (AsPC-1 (KRAS G12D); 24 h, geometric mean).

Set 2
Structure (SMILES): CCN1/C(=C/C=C2\CCCC(/C=C/C3=[N+](CC)c4ccccc4C3(C)C)=C2NCCCCCCCCN2CCC(Nc3nc4ccccc4n3Cc3ccc(F)cc3)CC2)C(C)(C)c2ccccc21
Cell line: U-87 MG
Concentration: concentration not given
Relative to: DMSO
It gave -2.43 for “log2 fold change” (refers to: GINS1 mRNA).
It gave 0.819 for “log2 fold change” (refers to: PFDN2 mRNA).
For refers to: ZNF280B mRNA: “log2 fold change” read 1.27.
The “log2 fold change” was -1.47 (refers to: SLC7A8 mRNA).
It gave -1.41 for “log2 fold change” (refers to: UBE2T mRNA).
The “log2 fold change” was -0.863 (refers to: EPB41L4B mRNA).
For refers to: HMGB1 mRNA: “log2 fold change” read -1.01.
refers to: HK2 mRNA — “log2 fold change”: 1.72.
For refers to: NDEL1 mRNA: “log2 fold change” read 0.965.
The “log2 fold change” was -1.05 (refers to: FOXD1 mRNA).
refers to: AMMECR1L mRNA — “log2 fold change”: 0.887.

Set 3
SMILES: C=CC(=O)N1CCN(c2nc(OC[C@@H]3CCCN3C)nc3c2CCN(c2cccc4cccc(C)c24)C3)C[C@@H]1CC#N
Read-out: binding
Action: competitor
Technique: NanoBRET
Cell line: HEK293
KRAS Q61L: GTPase KRas (KRAS, Homo sapiens, UniProt P01116, Q61L)
KRAS G12D: GTPase KRas (KRAS, Homo sapiens, UniProt P01116, G12D)
HRAS: GTPase HRas (HRAS, Homo sapiens, UniProt P01112)
The normalized BRET was 89.6% and 90.7% and 91.2% (KRAS Q61L; 82.2 nM).
The normalized BRET was 99.4% and 98.2% (KRAS G12D; 1.02 nM).
It gave 97.2% and 99% and 94.5% for normalized BRET (KRAS Q61L; 3.05 nM).
The normalized BRET was 115% and 87.3% (HRAS; 2.22 µM).
KRAS Q61L; 1.02 nM — normalized BRET: 102% and 101% and 94.7%.
It gave 87.1% and 103% for normalized BRET (HRAS; 82.2 nM).
It gave 44.4% for normalized BRET (KRAS G12D; 10 µM).

Set 4
SMILES: CCC1(c2cccc(-c3cn(C)nc3C)c2)C2=C(Nc3n[nH]cc31)C(F)C(C)(C)CC2=O (single isomer, unassigned)
Concentration: 1 µM
PDPK1 (Homo sapiens, UniProt O15530); kinase binding, KINOMEscan; relative to: DMSO control — remaining binding: 100%.
The remaining binding was 100% (MYLK4 (Homo sapiens, UniProt Q86YV6); kinase binding, KINOMEscan; relative to: DMSO control).
It gave 100% for remaining binding (CAMKK1 (Homo sapiens, UniProt Q8N5S9); kinase binding, KINOMEscan; relative to: DMSO control).
It gave 92% for remaining binding (SIK1 (Homo sapiens, UniProt P57059); KINOMEscan).
The remaining binding was 100% (PAK6 (Homo sapiens, UniProt Q9NQU5); binding, competition with immobilised ligand).
For PIM2 (Homo sapiens, UniProt Q9P1W9); kinase binding, KINOMEscan; relative to: DMSO control: remaining binding read 100%.
The remaining binding was 89% (LATS1 (Homo sapiens, UniProt O95835); kinase binding, KINOMEscan; relative to: DMSO control).
The remaining binding was 100% (CDK7 (Homo sapiens, UniProt P50613); kinase binding, KINOMEscan; relative to: DMSO control).
For PIK3CA (Homo sapiens, UniProt P42336, H1047L); binding, competition with immobilised ligand: remaining binding read 96%.
For PTK6 (Homo sapiens, UniProt Q13882); binding, competition with immobilised ligand: remaining binding read 100%.
The remaining binding was 77% (PLK2 (Homo sapiens, UniProt Q9NYY3); kinase binding, KINOMEscan; relative to: DMSO control).
For ACVR2B (Homo sapiens, UniProt Q13705); binding, competition with immobilised ligand: remaining binding read 100%.
It gave 95% for remaining binding (NEK4 (Homo sapiens, UniProt P51957); kinase binding, KINOMEscan; relative to: DMSO control).
MAP3K10 (Homo sapiens, UniProt Q02779); binding, competition with immobilised ligand — remaining binding: 100%.

For quick reference, copied from above (set 4):
The remaining binding was 100% (PAK6 (Homo sapiens, UniProt Q9NQU5); binding, competition with immobilised ligand).
The remaining binding was 77% (PLK2 (Homo sapiens, UniProt Q9NYY3); kinase binding, KINOMEscan; relative to: DMSO control).
For ACVR2B (Homo sapiens, UniProt Q13705); binding, competition with immobilised ligand: remaining binding read 100%.
PDPK1 (Homo sapiens, UniProt O15530); kinase binding, KINOMEscan; relative to: DMSO control — remaining binding: 100%.
The remaining binding was 100% (MYLK4 (Homo sapiens, UniProt Q86YV6); kinase binding, KINOMEscan; relative to: DMSO control).
For PTK6 (Homo sapiens, UniProt Q13882); binding, competition with immobilised ligand: remaining binding read 100%.
